Results collected from several papers.
Lines come from different studies, so protocols differ. “And” joins repeats or separate records; there may be more than shown. ± marks the error that the study gave.

Structure (SMILES) | cell line | test | setting | scale | quantity | result
CC(c1ccccc1)(c1ccc(O)cc1)c1ccc(O)cc1 | HepG2 spheroids | planimetry | 5 µM, 0 to 24 h | baseline: mean area of 72 h spheroids | spheroid area increase | 128%
O=c1c(O)c(-c2ccc(O)c(O)c2)oc2cc(O)cc(O)c12 | SH-SY5Y Aβ-GFP cells, scrambled shRNA | – | 5 µM | – | neurite branch number | 1.8 to 2.1
Nc1ncnc2c1ncn2[C@@H]1O[C@@H]2COP(=O)(O)O[C@H]3[C@@H](O)[C@H](n4cnc5c(=O)[nH]cnc54)O[C@@H]3COP(=O)(O)O[C@H]2[C@H]1O | HFF-1 | RNA sequencing, item: Reactome Nucleobase catabolism | upregulated pathways | baseline: mock | fold enrichment | 8.89
Cc1n[nH]c(C)c1CSC1CCCCC1 | Jurkat | cytotoxicity | – | baseline: IC50 HEK293 over IC50 Jurkat | selectivity index | 2.1
CC1(C)CN(CCCCC(=O)N[C@H](Cc2ccc(O)c(I)c2)C(=O)N[C@H](Cc2ccccc2)C(=O)N[C@H](CCCCNC(=O)CCCCCCC(=O)NCCCC[C@H](NC(=O)N[C@@H](CCC(=O)O)C(=O)O)C(=O)O)C(=O)O)CC[N]2CC(C)(C)[S][Tc]2(=[O])[S]1 (stereo partly drawn) [technetium-99m labelled] | LNCaP | – | 25 nM, 1 h, 37 °C | – | internalized activity | 2.17 ± 0.06 %AD/mg protein
COc1cc(CCC[P+](c2ccccc2)(c2ccccc2)c2ccccc2)c(OC)c2c1OCO2.[I-] | RPMI-8226 | SRB | – | – | TGI | -5.73 log M
COc1c(C)c2c(c(O)c1C/C=C(\C)CCC(=O)O)C(=O)OC2 | prostate cancer cell lines | cell proliferation | average over lines | – | IC50 | 1000 nM
O=c1cc(-c2ccc(O)cc2)oc2cc(O)cc(O)c12 | SH-SY5Y Aβ-GFP cells, TRKB shRNA | – | 5 µM | – | neurite branch number | 1.3 to 1.5
Cc1cc(C(C)(C)c2ccc(O)c(C)c2)ccc1O | HepG2 spheroids | Hoechst flow cytometry | 40 µM, 24 h | – | G2 phase cells | 19.8 ± 5.54%
C=C(C)[C@H]1CN[C@H](C(=O)O)[C@H]1CC(=O)O | hiPSC glutamatergic neurons | network burst frequency, multi-electrode array | 2 h | – | lowest effective concentration | 1 µM
Cn1ncc(-c2nc(N[C@H]3CC[C@H](N)CC3)ncc2Cl)c1CC1CC1 | human AML cell lines | immunoblot, item: MYC and MDM2 | 100 nM, 24 h | – | protein level | decreased
Cn1cncc1C1=CN(c2ncnc3[nH]cnc23)CCS1 | SF-539 | – | CNS cancer | – | CC50 | 100000 nM
CC(C)N1CCC(NC2CCN(c3cccc(-c4cc5cc(F)ccc5[nH]4)c3)CC2)CC1 | SF-268 | – | – | – | GI50 | 1530 nM
N.N.[Cl][Pt][Cl] | PEER | cell proliferation, CellTiter-Glo | 10 µM, 72 h | – | inhibition | 100%
Oc1ccc(C2(c3ccc(O)cc3)c3ccccc3-c3ccccc32)cc1 | HepG2 spheroids | cell proliferation, flow cytometry, item: Ki67 | 40 µM, 24 h | baseline: solvent control | inhibition | 15.4%
COc1ccc([C@@H](O)c2cc(-c3ncnc4cc(N5CCOCC5)ccc34)c(F)cc2Cl)nn1 | M12 | – | 100 nM, together with: radiation 2.5 Gy | – | clonogenic survival | 9 ± 2%
Cc1nn(-c2nc3c(F)cc(F)cc3s2)c(O)c1C(c1ccc(C(F)(F)F)cc1)c1c(C)nn(-c2nc3c(F)cc(F)cc3s2)c1O | RAW-ISG | CCK-8 | 12.5 µM | – | viability | 95.7% and 101% and 112% and 105%
COc1ccc2c(c1)[nH]c1c(C)nccc12 | DU-145 | bisulfite pyrosequencing, item: RASSF1A promoter CpG site 15 | 10 µM, 16 h | – | DNA methylation | 97.9%
O=C1CCP(=[Se])(c2ccccc2)CC1 | SW480 | MTT | 72 h | baseline: IC50 HaCaT over IC50 SW480 | selectivity index | 1.1
C[C@]12CC[C@H](O)C[C@H]1CC[C@@H]1[C@@H]2CC[C@]2(C)[C@@H](c3ccc(=O)oc3)CC[C@]12O | MCF7 | RT-qPCR, item: AGR2 | 50 nM, 48 h, unit not given, together with: estradiol | baseline: untreated | mRNA level | 0.886 and 0.735 and 0.75
C=C(C)[C@H]1Cc2c(ccc3c2O[C@@H]2COc4cc(OC)c(OC)cc4[C@@H]2C3=O)O1 | ReNcell VM neural progenitor cells | atomic force microscopy | 0.27 µM, 24 h | – | decrease in elastic modulus | ~80%
Cc1cc(O)ccc1Cl | SH-SY5Y | neurite outgrowth inhibition, phase-contrast imaging | 24 h, nominal concentration | – | EC10 | 56400 nM
O=c1cc(-c2ccccc2)oc2c(O)c(O)ccc12 | SH-SY5Y Aβ-GFP cells, TRKB shRNA | – | 5 µM | – | neurite length | 27.4 to 31.1 µm
COc1c(CCC[P+](c2ccccc2)(c2ccccc2)c2ccccc2)cc2c(c1OC)OCO2.[I-] | SF-268 | SRB | – | – | GI50 | -5.69 log M
CC[C@H]1CN2CCc3cc(OC)c(OC)cc3[C@@H]2C[C@@H]1C[C@H]1NCCc2cc(OC)c(OC)cc21.Cl.Cl | LDR | silenced CMV-GFP reporter derepression, qHTS | – | – | efficacy | 22%
Cc1c(O)c(O)cc2c1CC=C1[C@@]2(C)CC[C@@]2(C)[C@@H]3C[C@](C)(C(=O)O)CC[C@]3(C)CC[C@]12C | MYBPC3 iPSC cardiomyocytes | plate-normalised | concentration not given, 24 h, hit retest | – | MyBP-C level | 3.9%
CN1CCN(C2(CNC3CCN(c4cccc(-c5cc6cc(F)ccc6[nH]5)c4)CC3)CCC2)CC1 | SF-295 | – | – | – | GI50 | 1800 nM
Nc1ncc(-c2nc(N3CCOCC3)nc(N3CCOCC3)n2)c(C(F)F)n1 | A704 | – | 72 h | – | GI50 | 70 nM
S=P1(c2ccccc2)CCCCC1 | SW480 | MTT | 72 h | baseline: IC50 HaCaT over IC50 SW480 | selectivity index | 1
C/C=C(/C)C(=O)O[C@H]1C(C)=C2[C@H]([C@@H]1OC(=O)CCCCCCC)[C@@](C)(OC(C)=O)C[C@H](OC(=O)CCC)[C@@]1(O)[C@H]2OC(=O)[C@@]1(C)O | HEK-293T | RNA-seq GSEA, item: Hallmark mitotic spindle | 500 nM, 6 h | direction not given | normalized enrichment score | -1.03

Repeated from above:
Structure (SMILES) | cell line | test | setting | scale | quantity | result
COc1ccc([C@@H](O)c2cc(-c3ncnc4cc(N5CCOCC5)ccc34)c(F)cc2Cl)nn1 | M12 | – | 100 nM, together with: radiation 2.5 Gy | – | clonogenic survival | 9 ± 2%
Cc1nn(-c2nc3c(F)cc(F)cc3s2)c(O)c1C(c1ccc(C(F)(F)F)cc1)c1c(C)nn(-c2nc3c(F)cc(F)cc3s2)c1O | RAW-ISG | CCK-8 | 12.5 µM | – | viability | 95.7% and 101% and 112% and 105%
